Published values collected from several papers.
A part holds a random share of what one study measured.

Series 1
Target: RNA binding protein fox-1 homolog 2, RRM domain, GST-SBP tag (RBFOX2, Homo sapiens, UniProt O43251-10, residues 100-194)
Method: RNA Bind-n-Seq
Form: RNA
Medium: in vitro
Tested at: 365 nM
Notes: natural RNA segment, single round, ends assumed
Relative to: no-protein control
Reading: higher = stronger binding
Endpoint: RBNS enrichment (R)
Residues (chain): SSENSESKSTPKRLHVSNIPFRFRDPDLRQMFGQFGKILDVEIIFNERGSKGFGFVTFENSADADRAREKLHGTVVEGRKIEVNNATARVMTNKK
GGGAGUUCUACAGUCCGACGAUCGGACAUGGCAAAGAGAAUACAGCGAAGCCCCUUCUCUUCCUACCAAACAACUCUGUAGAGCUCUCUGCACCCUGUACCCUUUUCACCUUUUGUAUUUAAUUUUAAAGUCAUGGAAUUCUCGGGUGCCAA: 0.488
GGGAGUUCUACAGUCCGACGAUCAUGAUUUUGUGACUUCUGGUCAGUCGGUCAGCAGGCCGGGAUGUAUCAUUACCCUGAGCGAGCUGGAAGGGUGGUCACCCUGCACCUAGCCAGCCAUGCAGGCUCCAUCAUGGAAUUCUCGGGUGCCAA: 0.391
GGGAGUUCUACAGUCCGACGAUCCCGUGAUGCCAUUUGGAGGGGAGAGGUCUGCUUCCCACUGUGACCAGGCUAUGGGAUCCUUGGCCACCUUGCUUCAUGAUUUGAUACAUUUGUUGUAUUCAAAAACUUGAUGGAAUUCUCGGGUGCCAA: 0.528
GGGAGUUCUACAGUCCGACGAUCAAUGUAUGCAUUCAUCCAACAGAGUUAUUUAUUGGCUGGAGAUGGAAAAUCACACCACCUGACAGGCCUUCUGGGCCUCCAAAGCCCAUCCUUGGGGUUCCCCCUCCCUGUGGAAUUCUCGGGUGCCAA: 0.46
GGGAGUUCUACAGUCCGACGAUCGGGGGGUGUGAGUGGGUGCAUUUUUUAAAGCUGUCUUGAAUACCUAUUUAAAUGUGUGUUUUGGGGUGUUUUUUUUAGGGUUUUUUUUUUAAGCUGCCUGUGAUAUGUCCUGGAAUUCUCGGGUGCCAA: 1.56
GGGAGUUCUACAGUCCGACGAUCAAAACAUAGAAGUCAUUGUUAGUCUUGAAUUCAGCAAGCGUUAAUCAAUCUAUAUUUAAUUCAGUUCAGUGGCAUUCAUUAAGGAUGAAUUAAUCACUAUAGGAUUAAGCUGGAAUUCUCGGGUGCCAA: 0.385
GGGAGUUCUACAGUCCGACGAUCGAAGCUAGGGCGCCUACCCCCCCACCCGGAGGACCCCUGCGGCCCCCUGCCUAGAGGAGCACCAUCUACAGUUGUGCCAUUCCCCAGCCACUGCCUUCAUGCUGCCCCCGUGGAAUUCUCGGGUGCCAA: 0.468
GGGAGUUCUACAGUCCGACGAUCGACCACCCCCACGUUCAGAAAUCAGCUGGCCAAGUGACUCCAUUUGACUUGCAAACCAGCCUUUUCUAAUAGGCUAAUAUUGCUGAGGCCUUAAAGGAAAUGGACAAAAAUGGAAUUCUCGGGUGCCAA: 0.37
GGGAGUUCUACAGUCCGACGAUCUCUCGUAUUGGCAGAUCUUGACAGGCUGGACCUGCAAGAUGUGGCUUGAAUUUUAACCAUUUAUUACAUAAUCUCUAGUGAUCAUGCAUCUAGUUAUCAUAAGAAAUAAUUGGAAUUCUCGGGUGCCAA: 0.278
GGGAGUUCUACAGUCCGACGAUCAAUGUUCAUUUUCCUACCUAAACAGGGUGGUUCAACAUAAAGGCUGAUGUUGUGUCCGUUUUGUAUUUUAUCUUUUGUUAAAGAUACAUAAAUGACAAUACUUAACUGUGUGGAAUUCUCGGGUGCCAA: 0.334
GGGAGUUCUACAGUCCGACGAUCGCCCCAGUAGUUGACAGCCUUGCUCCUCUCCCAAGUUCUCCUUCAGAACCUAGUUGCUUUUAUUCUUCCAGCUACCACUUGGGCACUUCACAGCCAGCCUAGGGUCUUCGUGGAAUUCUCGGGUGCCAA: 0.609
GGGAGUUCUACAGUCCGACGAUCAGAAUCUGUAAGCUAAUAAAAUGUAAGAAAAGGUUAAAAAAAGAAUAGGUAAAUUGACAAGAAGUAUUUAUUGUUUUUCCAUAUUGCUUUAUUGCCUUCCUUGGGGAUAAUGGAAUUCUCGGGUGCCAA: 0.653

Series 2
Target: Interferon regulatory factor 5, full length, phosphomimetic (IRF5, Homo sapiens, UniProt Q13568-2, residues 1-514, S451D/S453D/S456D/S462D)
Method: protein-binding microarray
Form: double-stranded DNA, one strand shown
Medium: in vitro
Tested at: 940 nM top
Notes: 60-bp whole probe
Together with: salmon DNA 0.4 mg/ml
Relative to: random background probes
Reading: higher = stronger binding
Endpoint: fitted relative affinity
Shared flanks, not repeated: GCCTAGCAC … GTCTTGATTCGCTTGACGCTGCTG
TCAGGCTTTCCTTTATGACTGTGCTAG: 0.0971 z-score
TTAGGACTCGACTATCGGTTAGTGCTA: -0.0228 z-score
GAAGATTTCAGTTTCGAGACGTGCTAG: 4.24 z-score
GACGATTTCAGTATCGAGCCGTGCTAG: 1.88 z-score
GACGGTCTCGGTATCGGGTCGTGCTAG: 6.62 z-score
GAACATTTCCTTTACATTCCGTGCTAG: 0.902 z-score
CTAGTTGTGATTCTTTCGATGTGCTAG: 1.4 z-score
TTAGGTTTCGACTTTCTGTTAGTGCTA: 8.99 z-score
TCATGTTTACAGATGTTACTGTGCTAG: -0.142 z-score
TTAGGTATCCGGTTTCGGTTAGTGCTA: 6.78 z-score
ACGTTTTTCATTTTTTTTTTGTGCTAG: 1.94 z-score
GACGGACTGGACTATCGGGCCGTGCTA: -0.75 z-score
CACGGTCTCCTTTTCCTGACGTGCTAG: 0.695 z-score
TTAGATCTCAGTATCAATTAGTGCTAG: 1.04 z-score
GACGGACTTCTTCTCCTGACGTGCTAG: 0.245 z-score
GACGGCTTCGACACTGGGGACGTGCTA: -0.313 z-score
TTAGATTCCAGTTTTGATTAGTGCTAG: 1.09 z-score

Series 3
Target: Sox-I, HMG box (Salpingoeca helianthica)
Method: Spec-seq
Form: double-stranded DNA, one strand shown
Medium: in vitro
Tested at: not given
Notes: whole probe, mean of replicates
Relative to: not given
Reading: lower = stronger binding
Endpoint: relative binding energy
Shared flanks, not repeated: GAGTCGTCTCGTCAGCAC … CCGTAGAGCACTCAGGTC
Target sequence (chain): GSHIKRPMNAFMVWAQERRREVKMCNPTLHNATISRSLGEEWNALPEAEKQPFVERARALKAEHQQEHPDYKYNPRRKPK
CATTTTC: 0.624 ln ratio
ATGCGTT: 0.693 ln ratio
GCTCGTT: 0.659 ln ratio
ATTTGTT: -1.26 ln ratio
TGGAGTT: 0.653 ln ratio
CATATTG: 0.446 ln ratio
CATCTGA: 0.852 ln ratio
CTTAGTT: 0.261 ln ratio
CGAGGTT: 1.07 ln ratio
GCACGTT: 0.639 ln ratio
CATCTGC: 1.12 ln ratio
GAGAGTT: 0.909 ln ratio
CATCGCA: 0.646 ln ratio
CATTCAA: 0.242 ln ratio
TCCAGTT: -0.0899 ln ratio
GGAGGTT: 1.18 ln ratio
CATAACG: 0.429 ln ratio
AGGTGTT: 0.283 ln ratio
CATGGTA: 0.755 ln ratio
ATCCGTT: 0.0258 ln ratio
CATTATC: -0.705 ln ratio
GTCGGTT: 0.868 ln ratio
TGATGTT: -0.137 ln ratio
GAATGTT: 0.124 ln ratio

Series 4
Target: Prothrombin, mature alpha-thrombin (F2, Homo sapiens, UniProt P00734)
Method: aptamer microarray, sandwich
Form: DNA with 2'F-ANA
Medium: in vitro
Tested at: 200 nM
Notes: whole 15-mer aptamer, many near background
Together with: Cy3 exosite-II aptamer, 400 nM
Reading: higher = stronger binding
Endpoint: mean fluorescence intensity
Oligonucleotide: GGTTGGTGTGGTTGG
2'F-ANA at 3 8 10 12 15: 584 a.u.
2'F-ANA at 5 6 8 9 10 13 15: 51.1 a.u.
2'F-ANA at 4 5 6 7 8 9 12 13 14: 50.7 a.u.
2'F-ANA at 2 6 9 11 15: 292 a.u.
2'F-ANA at 2 3 8 9 14: 461 a.u.
2'F-ANA at 1 13: 156 a.u.
2'F-ANA at 2 5 9 11 15: 60.8 a.u.
2'F-ANA at 2 6 9 11 12 13: 403 a.u.
2'F-ANA at 3 5 6 8 9 12 14: 63.8 a.u.
2'F-ANA at 1 2 7 8 9 12 13 14: 73.6 a.u.
2'F-ANA at 2 3 5 7 8 12 13 14: 60.8 a.u.
2'F-ANA at 2 5 6 8 11 12 14: 50.9 a.u.
2'F-ANA at 1 2 5 7 8 11: 54.4 a.u.
2'F-ANA at 1 2 4 9 13: 84.3 a.u.
2'F-ANA at 4 5 7 8 9 11 13: 51.4 a.u.
2'F-ANA at 2 5 8 9 11 14: 50.7 a.u.
2'F-ANA at 3 4 6 9 10 14: 194 a.u.
2'F-ANA at 3 5 6 7 8 10 15: 58.2 a.u.
2'F-ANA at 7 9 12: 764 a.u.
2'F-ANA at 1 4 8 10 12 14 15: 50.1 a.u.
2'F-ANA at 2 4 5 7 8 10 13 14: 91.9 a.u.
2'F-ANA at 1 2 3 9 14 15: 76.4 a.u.

Repeated from above (series 1):
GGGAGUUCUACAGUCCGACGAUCCCGUGAUGCCAUUUGGAGGGGAGAGGUCUGCUUCCCACUGUGACCAGGCUAUGGGAUCCUUGGCCACCUUGCUUCAUGAUUUGAUACAUUUGUUGUAUUCAAAAACUUGAUGGAAUUCUCGGGUGCCAA: 0.528
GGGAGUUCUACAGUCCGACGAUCAAUGUAUGCAUUCAUCCAACAGAGUUAUUUAUUGGCUGGAGAUGGAAAAUCACACCACCUGACAGGCCUUCUGGGCCUCCAAAGCCCAUCCUUGGGGUUCCCCCUCCCUGUGGAAUUCUCGGGUGCCAA: 0.46
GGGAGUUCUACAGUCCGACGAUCGGGGGGUGUGAGUGGGUGCAUUUUUUAAAGCUGUCUUGAAUACCUAUUUAAAUGUGUGUUUUGGGGUGUUUUUUUUAGGGUUUUUUUUUUAAGCUGCCUGUGAUAUGUCCUGGAAUUCUCGGGUGCCAA: 1.56
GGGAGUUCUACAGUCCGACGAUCAAAACAUAGAAGUCAUUGUUAGUCUUGAAUUCAGCAAGCGUUAAUCAAUCUAUAUUUAAUUCAGUUCAGUGGCAUUCAUUAAGGAUGAAUUAAUCACUAUAGGAUUAAGCUGGAAUUCUCGGGUGCCAA: 0.385
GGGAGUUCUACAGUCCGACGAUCGAAGCUAGGGCGCCUACCCCCCCACCCGGAGGACCCCUGCGGCCCCCUGCCUAGAGGAGCACCAUCUACAGUUGUGCCAUUCCCCAGCCACUGCCUUCAUGCUGCCCCCGUGGAAUUCUCGGGUGCCAA: 0.468
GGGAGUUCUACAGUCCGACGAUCGACCACCCCCACGUUCAGAAAUCAGCUGGCCAAGUGACUCCAUUUGACUUGCAAACCAGCCUUUUCUAAUAGGCUAAUAUUGCUGAGGCCUUAAAGGAAAUGGACAAAAAUGGAAUUCUCGGGUGCCAA: 0.37
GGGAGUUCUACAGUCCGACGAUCUCUCGUAUUGGCAGAUCUUGACAGGCUGGACCUGCAAGAUGUGGCUUGAAUUUUAACCAUUUAUUACAUAAUCUCUAGUGAUCAUGCAUCUAGUUAUCAUAAGAAAUAAUUGGAAUUCUCGGGUGCCAA: 0.278
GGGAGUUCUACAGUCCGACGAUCAAUGUUCAUUUUCCUACCUAAACAGGGUGGUUCAACAUAAAGGCUGAUGUUGUGUCCGUUUUGUAUUUUAUCUUUUGUUAAAGAUACAUAAAUGACAAUACUUAACUGUGUGGAAUUCUCGGGUGCCAA: 0.334
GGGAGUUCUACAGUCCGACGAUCGCCCCAGUAGUUGACAGCCUUGCUCCUCUCCCAAGUUCUCCUUCAGAACCUAGUUGCUUUUAUUCUUCCAGCUACCACUUGGGCACUUCACAGCCAGCCUAGGGUCUUCGUGGAAUUCUCGGGUGCCAA: 0.609
